Measured values from different studies.
Protocols differ between the studies behind these lines. ± gives the spread as reported. In brackets after ≈: the same amount, converted by molar mass.

C[C@H]1CN(C(=O)c2cn(-c3ccnc(N)n3)c3cc(C#CC4(O)CCCCC4)ccc23)CCN1 — migrating and invading cells (human; cell migration and invasion, Transwell; A549; concentration not given): decreased
COc1ccc(-n2c(SCCF)nnc2[C@H](Cc2ccccc2)NC(=O)Cc2c(C)[nH]c3ccccc23)cc1 — selectivity index (HIV-2; MT-4, wild type; baseline: CC50 over EC50): 6
CC1(CCCCCCCCCCOCCCOP(=O)(O)CO[C@H](CO)Cn2ccc(N)nc2=O)COC1 — selectivity index (human gammaherpesvirus 8; qPCR; BCBL-1; baseline: CC50 over EC50): > 94
COc1cccc(CSc2nc3cc4ccccc4cc3c(=O)n2C)c1 — virus titre reduction (coxsackievirus B4; plaque; BGM; concentration not given, non-toxic dose): 23.3 ± 2%
CCCCCCSC[C@H]1CN(Cc2c[nH]c3c(N)ncnc23)C[C@@H]1O — IC90 (Helicobacter pylori; growth; horse blood agar): ~10 ng/mL (≈ 0.0275 µM)
CC1(CCCCCCCCCCCCOCCCOP(=O)(O)CO[C@H](CO)Cn2ccc(N)nc2=O)COC1 — selectivity index (Murid betaherpesvirus 1; qPCR; MEF, Smith; baseline: CC50 over EC50): > 18
COc1cc(CNC(=O)C[C@H](C)CCC=C(C)C)ccc1OCc1cn(-c2ccc(F)cc2)nn1 — growth percent (RXF 393; SRB; 10 µM, 48 h): 52.3%
C=C1CC(OC(=O)C(C)(O)CCl)C2C(=C)C(=O)OC2C2C1CC(O)C2(O)CCl (stereo not shown) — inhibition zone (Proteus vulgaris; concentration not given): 8 ± 1.1 mm
CCCCOC(=O)/C=C/c1ccc(O)c(O)c1 — selectivity index (Trypanosoma brucei rhodesiense; STIB900 bloodstream forms; baseline: L6 cell cytotoxicity over T. b. rhodesiense activity): 36
CC[C@@H](C)[C@@H](NC(=O)[C@@H](C)N)C(=O)N[C@H](CCCCN)C(=O)N[C@@H](C(=O)N[C@H](CCCNC(=N)N)C(=O)N[C@H](CCCCN)C(=O)N[C@H](CC(C)C)C(=O)N[C@H](Cc1ccccc1)C(=O)N[C@H](CCCCN)C(=O)N[C@H](CCCCN)C(=O)N[C@H](CC(C)C)C(=O)N[C@H](CC(C)C)C(=O)N[C@H](CCCNC(=N)N)C(N)=O)[C@H](C)CC — FICI (Escherichia coli; checkerboard; ATCC 25922; unit not given, with: gentamicin; lower = stronger synergy): 0.313
CCOC(=O)C1=C(C)NC2=C(C(=O)CC(C)(C)C2)C1c1ccc(OCC(=O)NN=Cc2cccc([N+](=O)[O-])c2)cc1OCC(=O)NN=Cc1cccc([N+](=O)[O-])c1 (stereo not shown) — inhibition zone diameter (Proteus vulgaris; FMC II; concentration not given, 24 h, 37 °C): 3.3 ± 0.1 mm
CO[C@H]1/C=C/O[C@@]2(C)Oc3c(C)c(O)c4c(c3C2=O)C2=NC3(CCN(CC(C)C)CC3)NC2=C(NC(=O)/C(C)=C\C=C\[C@H](C)[C@H](O)[C@@H](C)[C@@H](O)[C@@H](C)[C@H](OC(=O)c2ccccc2Cl)[C@@H]1C)C4=O — MIC ratio (Mycobacteroides abscessus; ATCC 19977; baseline: wild type over arr deletion): 0.9
COc1cc(CNC(=O)C[C@H](C)CCC=C(C)C)ccc1O — growth percent (RXF 393; SRB; 10 µM, 48 h): 104%
CN[C@@H]1[C@H](O)[C@H](NC)[C@H]2O[C@]3(O)[C@H](O[C@@H]2[C@H]1O)O[C@H](C)C[C@@]3(O)CNCc1ccc(F)cc1 — intracellular accumulation ratio (Mycobacteroides abscessus; LC-MS/MS, measured: intracellular compound; ATCC 19977; 100 µM, 30 min; baseline: compound over spectinomycin): 4.3 fold
CO[C@H]1/C=C/O[C@@]2(C)Oc3c(C)c(O)c4c(c3C2=O)C2=NC3(CCN(CC(C)C)CC3)NC2=C(NC(=O)/C(C)=C\C=C\[C@H](C)[C@H](O)[C@@H](C)[C@@H](O)[C@@H](C)[C@H](OC(=O)c2cccc(C)c2)[C@@H]1C)C4=O — MIC ratio (Mycobacteroides abscessus; ATCC 19977; baseline: wild type over arr deletion): 1.2
CCOC(=O)C1=C(C)NC2=C(C(=O)CC(C)(C)C2)C1c1ccc(OCC(=O)NN=Cc2cc(Br)c(O)c(Br)c2)cc1OCC(=O)NN=Cc1cc(Br)c(O)c(Br)c1 (stereo not shown) — inhibition zone diameter (Brevibacillus brevis; concentration not given, 24 h, 37 °C): 11.4 ± 0.3 mm
Nc1ccn(C[C@@H](CO)OCP(=O)(O)OCCCS(=O)(=O)CCCCCCCCCCC2CCC2)c(=O)n1 — selectivity index (human gammaherpesvirus 8; qPCR; BCBL-1; baseline: CC50 over EC50): 51
COc1ccc(-n2c(SCC#N)nnc2[C@H](Cc2ccccc2)NC(=O)Cc2c(C)[nH]c3ccccc23)cc1 — EC50 (HIV-2; HIV-2-induced cytopathicity, MTT; MT-4, wild type): 2.69 ± 0.17 µM
COc1ncccc1C(=O)Nc1ccccc1Nc1ccccc1 — inhibition (Valsa mali; mycelial growth, mycelial growth rate method; 50 mg/L): 3.41%
Brc1ccc(-c2c[nH]c(-c3ccccn3)n2)cc1 — worm killing (Schistosoma mansoni; adult male worms; 5 µM): 0%
CC(=O)OC[C@H]1O[C@@H](Sc2sc(C(=O)c3ccc(Br)cc3)c(N)c2-c2nc3ccccc3s2)[C@H](OC(C)=O)[C@@H](OC(C)=O)[C@@H]1OC(C)=O — viral reduction (coxsackievirus B4; plaque reduction; non-toxic dose NG, mean over three titres): 63.3%
CC[C@@H](C)[C@@H](NC(=O)[C@@H](C)NC(=O)[C@@H](CCCCN)NC(=O)[C@@H](CC(C)C)NC(=O)[C@@H](CC(C)C)NC(=O)[C@H](NC(=O)[C@@H](CCCCN)NC(=O)[C@@H](CC(C)C)NC(=O)[C@@H](CCCCN)NC(=O)[C@@H](CCCCN)NC(=O)[C@@H](CCCCN)NC(=O)[C@@H](CCCCN)NC(=O)[C@@H](C)NC(=O)[C@@H](CCCCN)NC(=O)[C@@H](CO)NC(=O)[C@@H](Cc1ccccc1)NC(=O)[C@H](NC(=O)[C@@H](CCCCN)NC(=O)[C@@H](CC(C)C)NC(=O)[C@@H](Cc1ccccc1)NC(=O)[C@@H](CO)NC(=O)[C@@H](CCCCN)NC(=O)[C@@H](Cc1c[nH]c2ccccc12)NC(=O)[C@@H](CCCCN)NC(C)=O)[C@H](C)O)[C@H](C)O)C(=O)N[C@H](CO)C(=O)N[C@H](CCCCN)C(N)=O — MIC geometric mean (Acinetobacter baumannii; 11 isolates; 24 h, 37 °C): 0.8 µM (≈ 2.5 µg/mL)
CO[C@H]1/C=C/O[C@@]2(C)Oc3c(C)c(O)c4c(c3C2=O)C2=NC3(CCN(CC(C)C)CC3)NC2=C(NC(=O)/C(C)=C\C=C\[C@H](C)[C@H](O)[C@@H](C)[C@@H](O)[C@@H](C)[C@H](OC(=O)c2ccccc2C(F)(F)F)[C@@H]1C)C4=O — MIC ratio (Mycobacteroides abscessus; ATCC 19977; baseline: wild type over arr deletion): 0.8
CCCCCCCCCC(=O)N[C@@H](Cc1c[nH]c2ccccc12)C(=O)N[C@H](CC(N)=O)C(=O)N[C@@H](CC(=O)O)C(=O)N[C@@H]1C(=O)NCC(=O)N[C@@H](CCCNC(=O)OC2/C=C/CCCCC2)C(=O)N[C@@H](CC(=O)O)C(=O)N[C@H](C)C(=O)N[C@@H](CC(=O)O)C(=O)NCC(=O)N[C@H](CO)C(=O)N[C@@H]([C@H](C)CC(=O)O)C(=O)N[C@@H](CC(=O)c2ccccc2N)C(=O)O[C@@H]1C (stereo partly shown) — minimum heat inhibitory concentration (Staphylococcus aureus; isothermal microcalorimetry; MRSA; 24 h, 37 °C, TAG gel): 1 µg/mL
CC1CCC2C1C1C(CCC23CCC2=C(O3)C(C)(C)C(=O)C(=C(O)C=Cc3ccccc3)C2=O)C1(C)C (stereo not shown) — IC50 (human respiratory syncytial virus; viral replication, CPE reduction; HEp-2, A2): 23.8 ± 1.25 µM
COc1ccc(-c2nc(-c3ccccc3OC)[nH]c2-c2ccc(OC)cc2)cc1 — worm killing (Schistosoma mansoni; female worms; 50 µM): 0%
C[C@H]1COc2c(N3CCN(C)CC3)c(F)cc3c(=O)c(C(=O)N[C@@H](CCCNC(=N)N)C(=O)N[C@@H](Cc4ccc(-c5ccccc5)cc4)C(=O)N[C@@H](CCCNC(=N)N)C(=O)N[C@@H](Cc4ccc(-c5ccccc5)cc4)C(=O)N[C@@H](CCCNC(=N)N)C(N)=O)cn1c23 — fold MIC improvement (Enterococcus faecium; broth microdilution; ATCC 2316; baseline: MIC of unconjugated components): 10 fold
CCCCSC[C@H]1CN(Cc2c[nH]c3c(N)ncnc23)C[C@@H]1O — IC90 (Helicobacter pylori; growth; horse blood agar 5%): 6 to 8 ng/mL (≈ 0.0179 to 0.0238 µM)
CCn1c(SCc2ccc(C#N)cc2)nc2cc3ccccc3cc2c1=O — virus titre reduction (coxsackievirus B4; plaque; BGM; concentration not given, non-toxic dose): 20 ± 1%
CC[C@H](C)[C@H](NC(=O)[C@H](CCC(N)=O)NC(=O)[C@H](Cc1ccccc1)NC(=O)[C@H](CO)NC(=O)[C@H](CS)NC(=O)[C@H](Cc1ccccc1)NC(=O)[C@H](C)NC(=O)[C@H](CCCCN)NC(=O)[C@H](CCCNC(=N)N)NC(=O)[C@H](CCCCN)NC(=O)[C@H](CC(C)C)NC(=O)[C@H](Cc1c[nH]cn1)NC(=O)[C@@H]1CCCN1C(=O)[C@H](CCC(N)=O)NC(=O)[C@H](CC(=O)O)NC(=O)[C@H](Cc1c[nH]cn1)NC(=O)[C@H](Cc1ccccc1)NC(=O)[C@@H]1CCCN1C(=O)[C@H](CS)NC(=O)[C@H](CC(N)=O)NC(=O)[C@H](CC(=O)O)NC(=O)[C@H](CC(C)C)NC(=O)[C@H](CC(N)=O)NC(=O)[C@@H]1CCCN1C(=O)[C@H](CCC(N)=O)NC(=O)[C@@H](NC(=O)[C@H](CCCCN)NC(=O)[C@@H](NC(=O)[C@H](CS)NC(=O)[C@@H](NC(=O)[C@@H](NC(=O)[C@H](CCCNC(=N)N)NC(=O)CN)[C@@H](C)O)[C@@H](C)O)[C@@H](C)O)[C@@H](C)O)C(=O)N[C@@H](Cc1ccc(O)cc1)C(=O)N[C@@H](C)C(=O)N[C@H](C(=O)N1CCC[C@H]1C(=O)N[C@@H](Cc1c[nH]c2ccccc12)C(=O)N[C@@H](CCC(N)=O)C(=O)NCC(=O)N[C@H](C(=O)N[C@@H](CCSC)C(=O)N[C@H](C(=O)N[C@@H](CC(C)C)C(=O)N[C@@H](CO)C(=O)N[C@@H](CCCCN)C(=O)N[C@@H](CO)C(=O)N[C@H](C(=O)N[C@@H](CS)C(=O)N[C@@H](CCC(N)=O)C(=O)N[C@@H](CC(=O)O)C(=O)N[C@@H](C)C(=O)O)[C@@H](C)O)[C@@H](C)O)[C@@H](C)O)C(C)C — reduction of infectious virus production (simian immunodeficiency virus; viral replication; human PBMC CCR5 Δ32/Δ32, SIVmac239; 10 µM, average, AUC-based): ~95%
CNCc1ccc2c(c1)N(C(=O)OCc1c(F)c(F)c(F)c(F)c1F)[C@H](CNC(=N)N)[C@H]2NC(=O)C(=O)Nc1ccc(Cl)c(F)c1 — potency fold increase (HIV-1 JR-FL pseudovirus; viral infection; Cf2Th-CD4/CCR5 cells; baseline: BNM-III-170): 23 fold
COc1ccc(-n2c(SCc3cccnc3)nnc2[C@H](Cc2ccccc2)NC(=O)Cc2c(C)[nH]c3ccccc23)cc1 — selectivity index (HIV-2; MT-4, wild type; baseline: CC50 over EC50): 6
CC(C)(C)NCC(SS(=O)(=O)O)c1ccccc1 (stereo not shown) — female worm burden reduction (Schistosoma mansoni; mice; oral, 600 mg/kg single dose, 42 days post-infection; baseline: vehicle): 100%
CN(C)CCCSC(=S)N1CCN(C(=O)/C=C/c2coc3ccccc3c2=O)CC1 — inhibition (PMMoV; virus inactivation; 500 µg/mL, mean): 70.8%
CN[C@@H]1[C@H](O)[C@H](NC)[C@H]2O[C@]3(O)[C@H](O[C@@H]2[C@H]1O)O[C@H](C)C[C@@]3(O)CNCCC1CCOCC1 — intracellular accumulation ratio (Mycobacteroides abscessus; LC-MS/MS, measured: intracellular compound; ATCC 19977; 100 µM, 30 min; baseline: compound over spectinomycin): 2.5 fold
CN[C@H](CC(C)C)C(=O)N[C@H]1C(=O)N[C@@H](CC(N)=O)C(=O)N[C@H]2C(=O)N[C@H]3C(=O)N[C@H](C(=O)N[C@H](C(=O)O)c4cc(O)cc(O)c4-c4cc3ccc4O)[C@H](O)c3ccc(c(Cl)c3)Oc3cc2cc(c3O[C@@H]2O[C@H](CO)[C@@H](O)[C@H](O)[C@H]2O[C@H]2C[C@](C)(NCc3ccc(C(=O)OCCCCCCN(Cc4ccccn4)Cc4ccccn4)cc3)[C@H](O)[C@H](C)O2)Oc2ccc(cc2Cl)[C@H]1O — regulation factor (Bacillus subtilis; protein synthesis, measured: KtrC; 168; concentration not given, 10 min, at peak effective concentration; baseline: untreated): 5.4 ± 2.2
C=C1NC(=O)c2csc(n2)C2=NC3c4csc(n4)C4NC(=O)c5csc(n5)C(C(C)(O)C(C)O)NC(=O)C5CSC(=N5)C(=CC)NC(=O)C(C(C)O)NC(=O)c5csc(n5)C3(CC2)NC(=O)C(CSCC(C(N)=O)NC1=O)NC(=O)C(=C)NC(=O)C(C)NC(=O)C(C(C)CC)NC1C=Cc2c(C(C)O)cc(nc2C1O)C(=O)OC4C (single isomer, unassigned) — fold increase in MIC (Staphylococcus aureus, Bacillus, Enterococcus faecium; three strains combined; baseline: thiostrepton A): ≤ 300 fold
